Measured values from different studies.
Lines come from different studies, so protocols differ. pEC50: −log10 of the molar value.
Action: agonist
MTNR1A: Melatonin receptor type 1A (MTNR1A, Homo sapiens, UniProt P48039)
UniProt P48039, sequence (whole entry, looked up): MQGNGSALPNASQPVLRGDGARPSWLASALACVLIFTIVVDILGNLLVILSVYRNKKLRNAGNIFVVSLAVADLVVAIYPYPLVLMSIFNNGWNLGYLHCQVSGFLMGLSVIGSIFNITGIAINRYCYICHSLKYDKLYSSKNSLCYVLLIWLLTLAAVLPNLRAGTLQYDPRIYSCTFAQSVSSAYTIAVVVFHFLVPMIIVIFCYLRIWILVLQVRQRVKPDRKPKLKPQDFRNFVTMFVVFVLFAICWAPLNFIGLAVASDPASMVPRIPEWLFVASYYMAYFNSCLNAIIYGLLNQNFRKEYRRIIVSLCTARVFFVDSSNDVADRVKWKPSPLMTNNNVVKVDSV
HTR1F: 5-hydroxytryptamine receptor 1F (HTR1F, Homo sapiens, UniProt P30939)
UniProt P30939, sequence (whole entry, looked up): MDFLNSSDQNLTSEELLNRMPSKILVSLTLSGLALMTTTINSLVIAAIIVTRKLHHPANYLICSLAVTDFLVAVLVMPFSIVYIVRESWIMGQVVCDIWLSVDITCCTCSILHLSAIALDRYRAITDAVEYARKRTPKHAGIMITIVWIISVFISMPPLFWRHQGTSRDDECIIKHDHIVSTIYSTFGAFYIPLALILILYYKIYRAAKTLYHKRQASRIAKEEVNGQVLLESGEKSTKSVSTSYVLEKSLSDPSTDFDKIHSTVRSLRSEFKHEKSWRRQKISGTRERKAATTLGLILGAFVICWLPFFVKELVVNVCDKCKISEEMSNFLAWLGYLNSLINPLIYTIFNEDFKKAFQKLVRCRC
MTNR1B: Melatonin receptor type 1B (MTNR1B, Homo sapiens, UniProt P49286)
UniProt P49286, sequence (whole entry, looked up): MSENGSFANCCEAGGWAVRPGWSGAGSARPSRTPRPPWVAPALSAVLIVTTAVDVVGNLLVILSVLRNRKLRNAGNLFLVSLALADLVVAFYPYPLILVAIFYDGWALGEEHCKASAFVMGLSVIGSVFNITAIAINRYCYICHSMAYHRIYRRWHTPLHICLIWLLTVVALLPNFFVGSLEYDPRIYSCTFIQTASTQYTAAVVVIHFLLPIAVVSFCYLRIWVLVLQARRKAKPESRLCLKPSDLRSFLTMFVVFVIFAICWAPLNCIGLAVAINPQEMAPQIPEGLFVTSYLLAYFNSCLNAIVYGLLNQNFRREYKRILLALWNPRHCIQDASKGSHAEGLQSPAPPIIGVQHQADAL
UniProt P0DMS8, sequence (whole entry, unmodified, looked up): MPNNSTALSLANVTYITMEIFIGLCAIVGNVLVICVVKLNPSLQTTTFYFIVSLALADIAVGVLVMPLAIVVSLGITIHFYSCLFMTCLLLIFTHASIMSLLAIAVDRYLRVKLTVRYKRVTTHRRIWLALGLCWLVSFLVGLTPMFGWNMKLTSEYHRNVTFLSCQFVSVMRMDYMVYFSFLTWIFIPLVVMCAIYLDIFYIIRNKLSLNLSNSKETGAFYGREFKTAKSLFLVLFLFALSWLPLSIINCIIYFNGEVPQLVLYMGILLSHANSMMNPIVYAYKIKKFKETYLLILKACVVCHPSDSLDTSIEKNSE
UniProt Q16581, sequence (whole entry, looked up): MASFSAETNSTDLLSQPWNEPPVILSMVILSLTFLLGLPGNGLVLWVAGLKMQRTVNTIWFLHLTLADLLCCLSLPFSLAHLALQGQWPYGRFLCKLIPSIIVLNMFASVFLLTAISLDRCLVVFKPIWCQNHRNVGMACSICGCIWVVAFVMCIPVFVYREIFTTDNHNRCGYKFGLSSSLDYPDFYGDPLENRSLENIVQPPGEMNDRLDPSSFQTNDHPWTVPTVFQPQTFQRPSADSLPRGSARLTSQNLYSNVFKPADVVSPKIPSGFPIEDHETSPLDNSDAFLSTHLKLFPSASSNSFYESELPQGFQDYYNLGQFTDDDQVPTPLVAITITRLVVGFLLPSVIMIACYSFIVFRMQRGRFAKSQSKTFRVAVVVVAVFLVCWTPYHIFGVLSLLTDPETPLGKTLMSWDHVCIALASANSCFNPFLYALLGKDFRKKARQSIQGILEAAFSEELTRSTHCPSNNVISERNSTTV

Compound	target	effect on	method	setting	pEC50
CN(Cc1cccc(C(F)(F)F)c1)C(=O)c1cccc(OC(F)F)c1	MTNR1A	cAMP	luciferase	–	7.43
CC(C)C[C@H](NC(=O)[C@@H](N)[C@@H](C)O)C(=O)N[C@@H](CCC(N)=O)C(=O)N1CCC[C@H]1C(=O)N1CCC[C@H]1C(=O)N[C@@H](C)C(=O)N[C@@H](CO)C(=O)N[C@@H](CO)C(=O)N[C@@H](CCCNC(=N)N)C(=O)N[C@@H](CCCNC(=N)N)C(=O)N[C@@H](CCCNC(=N)N)C(=O)N[C@@H](Cc1c[nH]cn1)C(=O)N[C@@H](Cc1ccccc1)C(=O)N[C@@H](Cc1c[nH]cn1)C(=O)N[C@@H](Cc1c[nH]cn1)C(=O)N[C@@H](C)C(=O)N[C@@H](CC(C)C)C(=O)N1CCC[C@H]1C(=O)N1CCC[C@H]1C(=O)N[C@@H](C)C(=O)N[C@@H](CCCNC(=N)N)C(=O)O	C3a anaphylatoxin chemotactic receptor (C3AR1, Homo sapiens, UniProt Q16581)	β-arrestin recruitment	BRET	–	7.03
Cc1ccc(Sc2ccccc2N2CCNCC2)c(C)c1	HTR1F	G protein activation	BRET	–	6.22
COc1cc(I)c2[nH]cc(CCNC(C)=O)c2c1	MTNR1B	GTPγS binding	radiometric	cell membranes	7.43
CN(C)c1ncnc2c1ncn2[C@@H]1O[C@H](CO)[C@@H](O)[C@H]1O	Adenosine receptor A3 (ADORA3, Homo sapiens, UniProt P0DMS8, I253N/V169N)	G protein activation	–	–	4.72
COC(=O)c1cc(Cn2c(=O)ccn2C)c(C)s1	MTNR1A	cAMP	luciferase	–	7.29
CN(C)CCCN1c2ccccc2Sc2ccc(Cl)cc21	HTR1F	G protein activation	BRET	–	6.95
COc1cc2c(CCNC(C)=O)c[nH]c2cc1I	MTNR1B	GTPγS binding	radiometric	cell membranes	8.74
COc1ccc2c(c1)N(Cc1ccnc(C)c1)CCO2	MTNR1A	cAMP	luciferase	–	9.76

For quick reference, copied from above:
Compound	target	effect on	method	setting	pEC50
CN(C)c1ncnc2c1ncn2[C@@H]1O[C@H](CO)[C@@H](O)[C@H]1O	Adenosine receptor A3 (ADORA3, Homo sapiens, UniProt P0DMS8, I253N/V169N)	G protein activation	–	–	4.72
